Assay results of several laboratories.
Every numbered part comes from another study and shows a few of its results, in no order.
Sequence of UniProt Q9Y5S2 (whole entry, looked up): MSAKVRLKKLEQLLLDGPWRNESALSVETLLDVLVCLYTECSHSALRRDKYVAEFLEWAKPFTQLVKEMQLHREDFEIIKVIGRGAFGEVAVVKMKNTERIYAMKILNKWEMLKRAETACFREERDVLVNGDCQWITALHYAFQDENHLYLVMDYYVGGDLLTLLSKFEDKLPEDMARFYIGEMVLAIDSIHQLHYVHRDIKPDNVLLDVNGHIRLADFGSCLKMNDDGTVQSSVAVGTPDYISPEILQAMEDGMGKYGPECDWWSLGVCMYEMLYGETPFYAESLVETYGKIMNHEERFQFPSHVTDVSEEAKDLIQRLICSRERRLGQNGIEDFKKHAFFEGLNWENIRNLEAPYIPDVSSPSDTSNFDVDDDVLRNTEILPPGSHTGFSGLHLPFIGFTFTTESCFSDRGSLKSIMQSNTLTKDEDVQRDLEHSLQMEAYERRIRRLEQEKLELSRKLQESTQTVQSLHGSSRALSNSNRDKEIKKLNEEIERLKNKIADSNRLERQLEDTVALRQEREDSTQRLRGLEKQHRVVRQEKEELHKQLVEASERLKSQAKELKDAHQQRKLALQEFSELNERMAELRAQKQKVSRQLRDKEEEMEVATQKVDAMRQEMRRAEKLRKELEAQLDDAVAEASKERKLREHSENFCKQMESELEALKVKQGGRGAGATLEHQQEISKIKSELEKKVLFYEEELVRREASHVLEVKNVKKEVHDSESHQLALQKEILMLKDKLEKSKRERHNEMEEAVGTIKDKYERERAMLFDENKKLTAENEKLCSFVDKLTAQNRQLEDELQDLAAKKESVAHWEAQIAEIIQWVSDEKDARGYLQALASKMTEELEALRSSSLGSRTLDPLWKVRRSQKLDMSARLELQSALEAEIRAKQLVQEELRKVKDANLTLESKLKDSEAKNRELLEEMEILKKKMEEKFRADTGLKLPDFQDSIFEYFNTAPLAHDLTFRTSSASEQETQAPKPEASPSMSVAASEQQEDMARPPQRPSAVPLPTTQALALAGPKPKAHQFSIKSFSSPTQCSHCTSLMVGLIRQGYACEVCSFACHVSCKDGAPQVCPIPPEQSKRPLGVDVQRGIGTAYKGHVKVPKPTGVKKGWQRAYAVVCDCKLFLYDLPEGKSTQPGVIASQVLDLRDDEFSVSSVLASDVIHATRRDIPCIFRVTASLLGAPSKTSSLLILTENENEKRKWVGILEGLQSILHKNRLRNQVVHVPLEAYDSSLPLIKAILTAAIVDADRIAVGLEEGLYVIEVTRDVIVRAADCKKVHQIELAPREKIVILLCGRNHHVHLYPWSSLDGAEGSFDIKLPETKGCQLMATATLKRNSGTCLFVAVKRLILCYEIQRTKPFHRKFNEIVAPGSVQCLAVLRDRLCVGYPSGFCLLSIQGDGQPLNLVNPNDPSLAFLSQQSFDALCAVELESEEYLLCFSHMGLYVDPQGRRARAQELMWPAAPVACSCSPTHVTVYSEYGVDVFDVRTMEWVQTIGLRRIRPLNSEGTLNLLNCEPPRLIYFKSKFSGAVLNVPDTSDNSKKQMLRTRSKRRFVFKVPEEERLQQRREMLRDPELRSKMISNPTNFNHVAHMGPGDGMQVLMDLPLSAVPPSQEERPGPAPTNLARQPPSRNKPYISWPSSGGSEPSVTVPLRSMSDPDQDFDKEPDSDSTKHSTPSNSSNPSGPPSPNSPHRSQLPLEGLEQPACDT
Sequence of UniProt Q16832 (whole entry, looked up): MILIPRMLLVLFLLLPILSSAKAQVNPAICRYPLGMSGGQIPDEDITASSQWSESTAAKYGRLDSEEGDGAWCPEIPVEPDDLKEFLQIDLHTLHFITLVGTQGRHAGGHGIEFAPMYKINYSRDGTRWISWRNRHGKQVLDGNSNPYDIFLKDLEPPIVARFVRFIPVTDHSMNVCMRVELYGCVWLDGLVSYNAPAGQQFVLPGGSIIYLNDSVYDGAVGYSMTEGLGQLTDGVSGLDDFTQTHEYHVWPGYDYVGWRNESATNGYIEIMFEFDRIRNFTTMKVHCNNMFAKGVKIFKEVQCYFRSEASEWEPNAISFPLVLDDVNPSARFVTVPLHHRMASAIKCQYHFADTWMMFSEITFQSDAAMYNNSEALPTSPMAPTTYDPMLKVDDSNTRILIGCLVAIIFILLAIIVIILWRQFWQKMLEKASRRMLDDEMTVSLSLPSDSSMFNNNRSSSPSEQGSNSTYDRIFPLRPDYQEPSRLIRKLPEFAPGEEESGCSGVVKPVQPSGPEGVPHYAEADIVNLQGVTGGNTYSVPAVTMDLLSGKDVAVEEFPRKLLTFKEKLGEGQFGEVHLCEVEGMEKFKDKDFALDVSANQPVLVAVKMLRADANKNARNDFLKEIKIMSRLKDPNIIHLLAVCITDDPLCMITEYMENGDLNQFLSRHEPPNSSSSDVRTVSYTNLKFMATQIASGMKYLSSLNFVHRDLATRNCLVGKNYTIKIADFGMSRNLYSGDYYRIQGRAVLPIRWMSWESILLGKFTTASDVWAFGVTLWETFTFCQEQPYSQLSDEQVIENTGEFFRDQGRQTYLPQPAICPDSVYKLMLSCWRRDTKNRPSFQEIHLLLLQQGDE
Sequence of UniProt Q9Y2I7 (whole entry, looked up): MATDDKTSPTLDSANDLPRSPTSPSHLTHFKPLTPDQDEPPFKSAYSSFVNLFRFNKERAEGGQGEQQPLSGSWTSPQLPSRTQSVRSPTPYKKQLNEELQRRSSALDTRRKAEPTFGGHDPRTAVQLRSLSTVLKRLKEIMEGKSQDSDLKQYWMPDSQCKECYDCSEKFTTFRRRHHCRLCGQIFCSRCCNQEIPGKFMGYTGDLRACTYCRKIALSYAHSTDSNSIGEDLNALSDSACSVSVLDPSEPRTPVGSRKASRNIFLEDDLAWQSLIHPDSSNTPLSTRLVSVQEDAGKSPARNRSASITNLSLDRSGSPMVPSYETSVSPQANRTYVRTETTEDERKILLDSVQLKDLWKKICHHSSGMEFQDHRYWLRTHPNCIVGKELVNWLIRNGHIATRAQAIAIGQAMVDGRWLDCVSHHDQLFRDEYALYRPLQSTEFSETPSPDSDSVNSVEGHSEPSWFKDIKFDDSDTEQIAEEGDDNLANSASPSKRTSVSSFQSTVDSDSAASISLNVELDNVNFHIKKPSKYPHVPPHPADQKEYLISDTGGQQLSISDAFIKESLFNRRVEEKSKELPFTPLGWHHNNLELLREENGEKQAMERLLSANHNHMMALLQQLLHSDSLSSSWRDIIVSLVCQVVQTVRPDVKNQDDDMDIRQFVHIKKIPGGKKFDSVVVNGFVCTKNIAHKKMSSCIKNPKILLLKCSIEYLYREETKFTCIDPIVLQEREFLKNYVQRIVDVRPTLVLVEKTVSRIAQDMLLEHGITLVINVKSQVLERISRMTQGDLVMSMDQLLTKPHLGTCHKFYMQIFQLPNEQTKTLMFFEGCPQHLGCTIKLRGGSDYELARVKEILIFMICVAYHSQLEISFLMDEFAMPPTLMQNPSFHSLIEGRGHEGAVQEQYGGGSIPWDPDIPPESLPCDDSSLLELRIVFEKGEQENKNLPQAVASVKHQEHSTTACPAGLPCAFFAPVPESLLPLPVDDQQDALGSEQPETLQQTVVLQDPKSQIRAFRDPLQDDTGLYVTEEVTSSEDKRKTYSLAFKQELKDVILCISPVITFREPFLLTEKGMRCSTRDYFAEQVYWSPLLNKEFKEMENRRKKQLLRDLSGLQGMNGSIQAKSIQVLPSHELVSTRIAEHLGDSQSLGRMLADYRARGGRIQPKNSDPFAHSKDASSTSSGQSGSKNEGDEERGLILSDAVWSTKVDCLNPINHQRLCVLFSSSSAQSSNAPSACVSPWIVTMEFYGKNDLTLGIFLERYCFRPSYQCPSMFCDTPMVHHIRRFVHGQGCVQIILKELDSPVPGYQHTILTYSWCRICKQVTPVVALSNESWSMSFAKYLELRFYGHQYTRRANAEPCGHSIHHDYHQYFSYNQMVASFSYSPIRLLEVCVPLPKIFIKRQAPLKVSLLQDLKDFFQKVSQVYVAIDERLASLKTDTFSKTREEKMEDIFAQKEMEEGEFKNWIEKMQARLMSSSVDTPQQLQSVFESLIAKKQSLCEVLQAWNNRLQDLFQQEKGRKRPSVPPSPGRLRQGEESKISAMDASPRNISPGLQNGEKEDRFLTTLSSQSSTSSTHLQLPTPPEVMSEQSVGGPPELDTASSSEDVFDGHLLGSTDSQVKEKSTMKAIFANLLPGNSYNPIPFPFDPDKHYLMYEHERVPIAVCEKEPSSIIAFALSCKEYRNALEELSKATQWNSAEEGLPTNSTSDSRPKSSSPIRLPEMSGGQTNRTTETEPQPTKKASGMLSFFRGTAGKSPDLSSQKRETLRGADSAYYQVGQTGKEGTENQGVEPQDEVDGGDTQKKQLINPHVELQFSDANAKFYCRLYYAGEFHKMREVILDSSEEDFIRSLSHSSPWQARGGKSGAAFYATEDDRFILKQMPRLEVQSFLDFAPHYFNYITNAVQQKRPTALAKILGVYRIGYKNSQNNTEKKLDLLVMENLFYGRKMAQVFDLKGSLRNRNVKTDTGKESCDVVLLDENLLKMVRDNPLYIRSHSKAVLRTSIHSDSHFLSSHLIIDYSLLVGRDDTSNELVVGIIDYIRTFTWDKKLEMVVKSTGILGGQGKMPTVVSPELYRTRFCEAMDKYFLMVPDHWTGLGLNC
Sequence of UniProt Q9HAZ1 (whole entry, looked up): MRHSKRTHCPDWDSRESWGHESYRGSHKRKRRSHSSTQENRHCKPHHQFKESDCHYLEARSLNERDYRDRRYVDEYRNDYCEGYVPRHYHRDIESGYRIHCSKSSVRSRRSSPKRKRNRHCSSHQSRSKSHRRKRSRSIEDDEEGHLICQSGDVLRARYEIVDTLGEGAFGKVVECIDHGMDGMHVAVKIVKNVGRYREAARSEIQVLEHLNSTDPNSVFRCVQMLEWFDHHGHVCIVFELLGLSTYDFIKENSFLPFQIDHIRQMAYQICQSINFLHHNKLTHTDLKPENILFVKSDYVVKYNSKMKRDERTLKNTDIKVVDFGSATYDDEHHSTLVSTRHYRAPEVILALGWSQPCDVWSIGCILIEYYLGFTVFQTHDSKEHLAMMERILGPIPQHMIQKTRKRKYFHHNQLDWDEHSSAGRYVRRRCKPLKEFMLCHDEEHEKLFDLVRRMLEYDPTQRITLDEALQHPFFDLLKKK

Study 1
Cell line: A-375
Concentration: 100 µM
Time: 18 h
| Compound | viability [%] |
| --- | --- |
| CCOC(=O)n1ccn(C)c1=S | 102 |
| CCCCC1=NC2(CCCC2)C(=O)N1Cc1ccc(-c2ccccc2-c2nnn[nH]2)cc1 | 98.7 |
| O=C(c1ccc(F)cc1)C1CCN(CCn2c(=O)[nH]c3ccccc3c2=O)CC1 | 96.5 |
| O=C(O)c1cccnc1 | 85.9 |
| C[C@]12C=CC(=O)C=C1CC[C@@H]1[C@@H]2C(=O)C[C@@]2(C)[C@H]1CC[C@]2(O)C(=O)CO | 103 |
| CNCCCC1c2ccccc2C=Cc2ccccc21 | 9.1 |
| NC[C@H]1O[C@H](O[C@H]2[C@H](O)[C@@H](O[C@H]3O[C@H](CO)[C@@H](O)[C@H](N)[C@H]3O)[C@H](N)C[C@@H]2N)[C@H](N)C[C@@H]1O | 92.3 |
| CC1(C)O[C@@H]2C[C@H]3[C@@H]4CCC5=CC(=O)C=C[C@]5(C)[C@@]4(F)[C@@H](O)C[C@]3(C)[C@]2(C(=O)CO)O1 | 84.3 |
| CCOC(=O)C1=C(C)NC(C)=C(C(=O)OC)C1c1cccc([N+](=O)[O-])c1 (stereo not shown) | 19.1 |

Study 2
Structure (SMILES): CCC(=O)N[C@H]1CC[C@@H](C(=O)N(C)c2ccc(-c3nc4ccccc4o3)cc2)C1
Observed: cell-free assay
Technique: competition with immobilised ligand
Concentration: 1 µM
| target | remaining binding |
| --- | --- |
| STE20/SPS1-related proline-alanine-rich protein kinase (STK39, Homo sapiens, UniProt Q9UEW8) | 100% |
| NUAK family SNF1-like kinase 1 (NUAK1, Homo sapiens, UniProt O60285) | 100% |
| Epidermal growth factor receptor (EGFR, Homo sapiens, UniProt P00533, G719C) | 100% |
| Phosphatidylinositol 4,5-bisphosphate 3-kinase catalytic subunit alpha isoform (PIK3CA, Homo sapiens, UniProt P42336, M1043I) | 100% |
| Phosphatidylinositol 3-kinase C2 domain-containing subunit gamma (PIK3C2G, Homo sapiens, UniProt O75747) | 86% |
| 1-phosphatidylinositol 3-phosphate 5-kinase (PIKFYVE, Homo sapiens, UniProt Q9Y2I7) | 94% |
| Serine/threonine-protein kinase TAO1 (TAOK1, Homo sapiens, UniProt Q7L7X3) | 100% |
| Mitogen-activated protein kinase kinase kinase kinase 2 (MAP4K2, Homo sapiens, UniProt Q12851) | 96% |
| Death-associated protein kinase 3 (DAPK3, Homo sapiens, UniProt O43293) | 95% |
| Tyrosine-protein kinase ABL2 (ABL2, Homo sapiens, UniProt P42684) | 100% |

Study 3
SMILES: Nc1nc(Nc2ccc(S(N)(=O)=O)cc2)nn1C(=S)Nc1c(F)cccc1F
Observed: enzyme activity
Action: inhibitor
Concentration: 0.5 µM
Relative to: control
| target | remaining activity |
| --- | --- |
| Mitogen-activated protein kinase 14 (MAPK14, Homo sapiens, UniProt Q16539) | 95.4% |
| Dual specificity protein kinase CLK4 (CLK4, Homo sapiens, UniProt Q9HAZ1) | 1.92% |
| Calcium/calmodulin-dependent protein kinase type IV (CAMK4, Homo sapiens, UniProt Q16566) | 98.8% |
| cGMP-dependent protein kinase 2 (PRKG2, Homo sapiens, UniProt Q13237) | 61.5% |
| Dual specificity mitogen-activated protein kinase kinase 1 (MAP2K1, Homo sapiens, UniProt Q02750) | 94.6% |
| Serine/threonine-protein kinase Nek3 (NEK3, Homo sapiens, UniProt P51956) | 19.6% |
| Tyrosine-protein kinase TXK (TXK, Homo sapiens, UniProt P42681) | 85.8% |
| Serine/threonine-protein kinase MARK2 (MARK2, Homo sapiens, UniProt Q7KZI7) | 3.43% |
| Serine/threonine-protein kinase PLK3 (PLK3, Homo sapiens, UniProt Q9H4B4) | 92.2% |
| Cyclin-dependent kinase 9, with cyclin K (CDK9, Homo sapiens, UniProt P50750) | 7.46% |
| Discoidin domain-containing receptor 2 (DDR2, Homo sapiens, UniProt Q16832) | 130% |
| Mitogen-activated protein kinase 1 (MAPK1, Homo sapiens, UniProt P28482) | 76.2% |
| Serine/threonine-protein kinase MRCK beta (CDC42BPB, Homo sapiens, UniProt Q9Y5S2) | 48.1% |
| G protein-coupled receptor kinase 4 (GRK4, Homo sapiens, UniProt P32298) | 92.2% |

Study 4
Organism: Plasmodium berghei
Action: inhibitor
Cell line: Huh-7
Strain: GFP-expressing sporozoites, liver stage
Concentration: 10 µM
Time: 24 h
Relative to: untreated control
| SMILES | infection rate |
| --- | --- |
| CCn1cc(C(=O)O)c(=O)c2cc(F)c(N3CCNCC3)nc21 | 97.8% |
| Cn1nnnc1SCC1=C(C(=O)O)N2C(=O)[C@@H](NC(=O)[C@H](O)c3ccccc3)[C@H]2SC1 | 91.6% |
| CN[C@@H]1[C@H](O[C@H]2[C@H](O[C@H]3[C@H](O)[C@@H](O)[C@H](N=C(N)N)[C@@H](O)[C@@H]3N=C(N)N)O[C@@H](C)[C@]2(O)CO)O[C@@H](CO)[C@H](O)[C@H]1O | 93.9% |
| CN[C@@H]1[C@@H](O[C@H]2O[C@H](CO)[C@@H](N)[C@H](O)[C@H]2O)O[C@H]2C[C@@H](N)[C@@H](O[C@H]3[C@H](O)[C@@H](O)[C@H](N)C[C@@H]3N)O[C@@H]2[C@@H]1O | 88.5% |
| COc1ccc(-c2cc(C(F)F)nn2-c2ccc(S(N)(=O)=O)cc2)cc1F | 113% |
| CO/N=C(\C(=O)N[C@@H]1C(=O)N2C(C(=O)OCOC(=O)C(C)(C)C)=C(/C=C\c3scnc3C)CS[C@H]12)c1csc(N)n1 | 57.5% |
| CCCCOc1cc(C(=O)NCCN(CC)CC)c2ccccc2n1 | 70.5% |

Some of these lines once more (study 4):
| SMILES | infection rate |
| --- | --- |
| CCn1cc(C(=O)O)c(=O)c2cc(F)c(N3CCNCC3)nc21 | 97.8% |
| Cn1nnnc1SCC1=C(C(=O)O)N2C(=O)[C@@H](NC(=O)[C@H](O)c3ccccc3)[C@H]2SC1 | 91.6% |
| CN[C@@H]1[C@H](O[C@H]2[C@H](O[C@H]3[C@H](O)[C@@H](O)[C@H](N=C(N)N)[C@@H](O)[C@@H]3N=C(N)N)O[C@@H](C)[C@]2(O)CO)O[C@@H](CO)[C@H](O)[C@H]1O | 93.9% |
| CN[C@@H]1[C@@H](O[C@H]2O[C@H](CO)[C@@H](N)[C@H](O)[C@H]2O)O[C@H]2C[C@@H](N)[C@@H](O[C@H]3[C@H](O)[C@@H](O)[C@H](N)C[C@@H]3N)O[C@@H]2[C@@H]1O | 88.5% |
| COc1ccc(-c2cc(C(F)F)nn2-c2ccc(S(N)(=O)=O)cc2)cc1F | 113% |
